Measurements pooled from the literature.
Parts stem from different laboratories: compare values within a part only. Positions count from the first letter of the parent shown.

Study 1 — technique: DHFR PCA, deep sequencing; matrix: yeast; with: (+)-ABA 4.8 µM; relative to: wild-type fitted maximum; direction: higher = stronger binding
Target: ABI1, truncated, D143A, DHFR fusion (Arabidopsis thaliana)
Setting: methotrexate growth selection, single substitutions
Starting sequence: PYL1, truncated, DHFR fusion (Arabidopsis thaliana); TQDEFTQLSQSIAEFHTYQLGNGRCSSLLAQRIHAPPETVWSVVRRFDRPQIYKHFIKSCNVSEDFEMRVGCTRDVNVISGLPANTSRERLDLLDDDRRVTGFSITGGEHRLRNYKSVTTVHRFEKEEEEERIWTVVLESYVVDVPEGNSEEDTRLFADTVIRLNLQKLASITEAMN; partner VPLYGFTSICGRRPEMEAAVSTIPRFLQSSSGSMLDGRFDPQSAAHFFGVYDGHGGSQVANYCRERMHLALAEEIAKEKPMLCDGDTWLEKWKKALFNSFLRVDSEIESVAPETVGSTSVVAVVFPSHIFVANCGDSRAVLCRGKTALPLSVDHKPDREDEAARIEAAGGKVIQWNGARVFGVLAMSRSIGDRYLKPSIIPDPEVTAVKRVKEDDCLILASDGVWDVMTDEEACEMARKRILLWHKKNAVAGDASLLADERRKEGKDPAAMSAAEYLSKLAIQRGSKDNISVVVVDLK
For `C72T`, “relative binding score” read 54.3%.
`T173K` — result for “relative binding score”: -6.92%.
Under “relative binding score”, `V44Q` is recorded as -10.1%.
`I52N` — result for “relative binding score”: 48.3%.
Under “relative binding score”, `F15L` is recorded as 29.7%.
`V43H`: “relative binding score” 5%.
`T119Y`: “relative binding score” -16.9%.
Under “relative binding score”, `A158M` is recorded as 35.9%.
`V78C` — result for “relative binding score”: 61.4%.
Under “relative binding score”, `T173P` is recorded as 2.82%.
`R49M`: “relative binding score” 65%.
`V145T` — result for “relative binding score”: 33.2%.
For `D95W`, “relative binding score” read 4.84%.
`I79R`: “relative binding score” 31.6%.
For `I105Q`, “relative binding score” read 12.4%.
`V142P`: “relative binding score” -16.9%.
`E125A`: “relative binding score” 78.8%.
`N149C` — result for “relative binding score”: 28.6%.
`L28D`: “relative binding score” -9.81%.
`S150Q` — result for “relative binding score”: 19.9%.
Under “relative binding score”, `Y141L` is recorded as -7.99%.
`R155H`: “relative binding score” 10.9%.
For `C60Q`, “relative binding score” read 12.2%.
`E139A` — result for “relative binding score”: 4.49%.
Under “relative binding score”, `D95Y` is recorded as 0.884%.

Study 2 — target: CCNF, cyclin fold, Cln2 fusion (human); technique: yeast growth competition, sequencing; matrix: yeast; setting: strong parent motif; relative to: not given; direction: higher = stronger binding
Starting sequence: E2F1 docking peptide (human); PPVKRRLDLETDH
For `PPVKRRLTLETDH [D8T]`, “normalised enrichment score” read 4.91.
`PPVKRRLDLEKDH [T11K]`: “normalised enrichment score” 5.78.
`PPVKRRLDLEDDH [T11D]` — result for “normalised enrichment score”: 6.05.
For `PPHKRRLDLETDH [V3H]`, “normalised enrichment score” read 1.58.
`PIVKRRLDLETDH [P2I]`: “normalised enrichment score” 4.42.
`PTVKRRLDLETDH [P2T]` — result for “normalised enrichment score”: 6.05.
Under “normalised enrichment score”, `RPVKRRLDLETDH [P1R]` is recorded as 6.54.
For `PPVKARLDLETDH [R5A]`, “normalised enrichment score” read -0.0343.
Under “normalised enrichment score”, `PPVKRRLDLELDH [T11L]` is recorded as 7.15.
Under “normalised enrichment score”, `PPVKRRLDLETLH [D12L]` is recorded as 7.46.
`PPVPRRLDLETDH [K4P]`: “normalised enrichment score” 2.92.
`PPVKRRLPLETDH [D8P]`: “normalised enrichment score” 3.04.
`PPVSRRLDLETDH [K4S]`: “normalised enrichment score” 4.9.
`PPVKVRLDLETDH [R5V]` — result for “normalised enrichment score”: -0.179.
Under “normalised enrichment score”, `PPMKRRLDLETDH [V3M]` is recorded as 2.11.
`PPVKRRLDLETDK [H13K]`: “normalised enrichment score” 7.04.
Under “normalised enrichment score”, `PPVKRRLDLEADH [T11A]` is recorded as 6.92.

Study 3 — technique: protein-binding microarray; form: double-stranded DNA, one strand shown; matrix: in vitro; tested at: 2200 nM top; setting: 60-bp whole probe; with: salmon DNA 0.4 mg/ml; relative to: random background probes; direction: higher = stronger binding; all sequences stand within: GCCTAGCAC … GTCTTGATTCGCTTGACGCTGCTG
Target: Interferon regulatory factor 7, full length, phosphomimetic (IRF7, Homo sapiens, UniProt Q92985, residues 1-503, S471D/S472D/S475D/S476D/S477D/S483D/S484D/S487D)
Chain of UniProt Q92985 (whole entry, unmodified, looked up): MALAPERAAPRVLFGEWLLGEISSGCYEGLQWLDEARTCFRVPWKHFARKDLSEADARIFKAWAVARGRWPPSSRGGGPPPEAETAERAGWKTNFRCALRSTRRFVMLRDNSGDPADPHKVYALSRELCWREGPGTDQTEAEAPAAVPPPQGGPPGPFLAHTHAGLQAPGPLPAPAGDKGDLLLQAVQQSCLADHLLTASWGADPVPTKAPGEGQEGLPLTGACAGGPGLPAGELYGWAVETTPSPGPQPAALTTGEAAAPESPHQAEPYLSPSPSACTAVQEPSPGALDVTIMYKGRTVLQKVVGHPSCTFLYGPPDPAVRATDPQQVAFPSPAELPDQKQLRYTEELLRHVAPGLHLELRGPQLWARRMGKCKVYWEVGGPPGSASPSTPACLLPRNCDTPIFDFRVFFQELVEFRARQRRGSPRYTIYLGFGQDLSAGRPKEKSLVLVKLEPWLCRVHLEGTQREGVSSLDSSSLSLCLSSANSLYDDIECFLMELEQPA
`TCAAATCTTTTTCCCTAACTGTGCTAG` — result for “fitted relative affinity”: 0.858 z-score.
`TCAGCTTTCCTGATGACACTGTGCTAG`: “fitted relative affinity” 1.83 z-score.
For `TCACTCGTCTCTATCAAACTGTGCTAG`, “fitted relative affinity” read 1.55 z-score.
Under “fitted relative affinity”, `TGCCCTCTAACTTCCCAATGGTGCTAG` is recorded as 1.1 z-score.
Under “fitted relative affinity”, `GAAAGAATCACAACTAGGAAGGTGCTA` is recorded as -0.575 z-score.
`GACGATAACAGACTGGAGACGTGCTAG` — result for “fitted relative affinity”: -0.267 z-score.
Under “fitted relative affinity”, `GACGCACTGGGGTATCGGGACGTGCTA` is recorded as -0.214 z-score.
`TTAGGTTTCGGTATCGGTTGGTGCTAG` — result for “fitted relative affinity”: 8.43 z-score.
`GACGGTTACGGGTATCGGGACGTGCTA`: “fitted relative affinity” -0.151 z-score.
For `TCATGTCTCTGTCCCTGACTGTGCTAG`, “fitted relative affinity” read 1.89 z-score.
`TCATTTCTCTTATTCTAACTGTGCTAG`: “fitted relative affinity” 2.6 z-score.
`TCATCTTTCCTTCTTGAACTGTGCTAG`: “fitted relative affinity” 3.03 z-score.
For `GACGGTTTCCTTTTCATGACGTGCTAG`, “fitted relative affinity” read 4.67 z-score.
`TCACATTTTGGTTTTCTACTGTGCTAG` — result for “fitted relative affinity”: 3 z-score.
Under “fitted relative affinity”, `TCACGTCTCTATCAAAAACTGTGCTAG` is recorded as 0.933 z-score.
`TCATCTATCTCTGTTTTACTGTGCTAG`: “fitted relative affinity” 1.97 z-score.
Under “fitted relative affinity”, `TTAAGACTGCTACTGCTTTAGTGCTAG` is recorded as -0.445 z-score.
Under “fitted relative affinity”, `GACGATATCAGTCACGAGACGTGCTAG` is recorded as 0.225 z-score.
`GACGAATTCAGTCTCGAGACGTGCTAG`: “fitted relative affinity” 0.371 z-score.
`CTAGATATCGGGTTTCGATTAGTGCTA`: “fitted relative affinity” 2.92 z-score.
`TTAGGTATCCTTTTCCGTTAGTGCTAG`: “fitted relative affinity” 1.89 z-score.
`TCAGGTTTCCTTTCCCTTTAGTGCTAG`: “fitted relative affinity” 5.36 z-score.
`ACCAGTTTTCTTTTCATTACGTGCTAG` — result for “fitted relative affinity”: 5.08 z-score.
For `GACGGGCTGGGGTTTCGGGACGTGCTA`, “fitted relative affinity” read 0.142 z-score.
For `CATTTTATGGTATTTTTTTCGTGCTAG`, “fitted relative affinity” read 1.66 z-score.

Study 4 — target: FOSL2, bZIP domain (human); technique: DHFR protein complementation; matrix: yeast; relative to: wild-type JUN-FOS pair; direction: higher = stronger binding
Setting: single substitutions, most at no-binding floor
Starting sequence: JUN, bZIP domain (human); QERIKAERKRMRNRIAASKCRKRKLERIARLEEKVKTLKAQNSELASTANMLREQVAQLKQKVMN; partner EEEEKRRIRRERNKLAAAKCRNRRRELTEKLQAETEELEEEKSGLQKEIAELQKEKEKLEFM
The binding fitness of `L45P` is reported as -1.44 natural log.
`L52T` has a binding fitness of -0.583 natural log.
The binding fitness of `M51Q` is reported as 0.116 natural log.
`S43D` gave a binding fitness of 0.00318 natural log.
`L38R` gave a binding fitness of -0.987 natural log.
`K34F` gave a binding fitness of -0.28 natural log.
For `A49G`, the binding fitness was -0.579 natural log.
With `L31Y` the binding fitness was -0.109 natural log.
For `L45V`, the binding fitness was -1.4 natural log.
`S43P` has a binding fitness of -1.02 natural log.
For `L59W`, the binding fitness was -1.11 natural log.
For `A40H`, the binding fitness was 0.0546 natural log.
The binding fitness of `E44P` is reported as -1.32 natural log.
`T48I` has a binding fitness of 0.0258 natural log.
`T48Y` gave a binding fitness of 0.102 natural log.
`T48F` has a binding fitness of 0.0465 natural log.
For `R30W`, the binding fitness was 0.115 natural log.
`A29C` has a binding fitness of -0.0875 natural log.
`E33H` gave a binding fitness of -0.0854 natural log.
With `N42S` the binding fitness was -0.473 natural log.
`V56L` has a binding fitness of -0.198 natural log.
`E54V` has a binding fitness of -0.147 natural log.
`E54A` gave a binding fitness of -0.0434 natural log.
With `E44N` the binding fitness was -0.0781 natural log.
`E44W` has a binding fitness of -0.284 natural log.

Study 5 — technique: protein binding microarray; form: double-stranded DNA, one strand shown; matrix: in vitro; tested at: not given; relative to: not given; direction: higher = stronger binding
Target: Histone acetyltransferase KAT6A, winged helix 1, GST fusion (KAT6A, Homo sapiens, UniProt Q92794, residues 1-85)
Setting: 8-mer, flanks averaged, mean of 2 arrays, mostly near background
Residues (chain): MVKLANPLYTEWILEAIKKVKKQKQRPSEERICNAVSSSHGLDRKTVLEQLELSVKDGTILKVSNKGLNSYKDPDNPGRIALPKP
`CTATTTGA` has an E-score of -0.0914.
For `CCTTCACA`, the E-score was -0.168.
`ACCCCCAC` has an E-score of 0.0237.
The E-score of `ATGAACCC` is reported as 0.0142.
With `AATTAATA` the E-score was -0.0666.
The E-score of `TTAACAAA` is reported as 0.0264.
For `TAGTAATA`, the E-score was -0.0425.
The E-score of `CAGATTCG` is reported as -0.183.
The E-score of `AGGTATAA` is reported as -0.133.
`GGCTTGAC` gave an E-score of -0.158.
With `ATCGTGAG` the E-score was -0.00126.
With `CGCTGCGA` the E-score was 0.149.
With `AATAGGTC` the E-score was 0.034.
With `AGTGCACT` the E-score was -0.3.
`CATAACGG` has an E-score of 0.179.
With `ATGCTGTC` the E-score was -0.225.
`ACACTCAG` has an E-score of -0.144.
`AATTACAG` has an E-score of 0.0336.
`CATATCAC` has an E-score of -0.0379.
`AGCCGTAG` has an E-score of 0.292.
For `AGGGTACT`, the E-score was -0.0672.
The E-score of `AAGCCCGC` is reported as 0.345.
`GGTATCTA` gave an E-score of -0.016.
The E-score of `CAAAGAAA` is reported as -0.22.

Repeated from above (study 5):
With `AATTAATA` the E-score was -0.0666.
The E-score of `AAGCCCGC` is reported as 0.345.
`AGCCGTAG` has an E-score of 0.292.
`ACACTCAG` has an E-score of -0.144.
`ACCCCCAC` has an E-score of 0.0237.
With `ATCGTGAG` the E-score was -0.00126.
The E-score of `CAAAGAAA` is reported as -0.22.
The E-score of `CAGATTCG` is reported as -0.183.
With `AGTGCACT` the E-score was -0.3.
The E-score of `AGGTATAA` is reported as -0.133.
`CATAACGG` has an E-score of 0.179.
`GGCTTGAC` gave an E-score of -0.158.
